Assay results of several laboratories.
Numbered parts are unrelated; each lists some results of a single study. Substitutions count along the parent as printed.

Sample 1 — technique: aptamer microarray, sandwich; form: DNA with 2'F-ANA; medium: in vitro; tested at: 200 nM; with: Cy3 exosite-II aptamer, 400 nM; reading: higher = stronger binding; oligonucleotide: GGTTGGTGTGGTTGG
Target: Prothrombin, mature alpha-thrombin (F2, Homo sapiens, UniProt P00734)
Setting: whole 15-mer aptamer, many near background
| Modification | mean fluorescence intensity [a.u.] |
| --- | --- |
| 2'F-ANA at 1 3 4 5 7 9 10 11 13 | 57 |
| 2'F-ANA at 1 3 5 6 8 9 13 14 | 52.9 |
| 2'F-ANA at 3 5 6 9 11 13 | 86.6 |
| 2'F-ANA at 4 7 8 9 11 12 13 | 401 |
| 2'F-ANA at 1 5 7 8 11 12 13 15 | 75 |
| 2'F-ANA at 1 2 8 9 13 | 146 |
| 2'F-ANA at 2 4 5 6 9 10 13 14 | 47.2 |
| 2'F-ANA at 2 3 4 6 8 9 10 11 12 13 | 209 |

Sample 2 — technique: RNA Bind-n-Seq; form: RNA; medium: in vitro; tested at: not given; relative to: input RNA pool; reading: higher = stronger binding
Target: RING finger protein unkempt homolog, zinc fingers 1-6, GST-SBP tag (UNK, Homo sapiens, UniProt Q9C0B0, residues 30-357)
Setting: RNA with constant flanks, human-mouse chimeric sites, ends assumed
Construct (chain): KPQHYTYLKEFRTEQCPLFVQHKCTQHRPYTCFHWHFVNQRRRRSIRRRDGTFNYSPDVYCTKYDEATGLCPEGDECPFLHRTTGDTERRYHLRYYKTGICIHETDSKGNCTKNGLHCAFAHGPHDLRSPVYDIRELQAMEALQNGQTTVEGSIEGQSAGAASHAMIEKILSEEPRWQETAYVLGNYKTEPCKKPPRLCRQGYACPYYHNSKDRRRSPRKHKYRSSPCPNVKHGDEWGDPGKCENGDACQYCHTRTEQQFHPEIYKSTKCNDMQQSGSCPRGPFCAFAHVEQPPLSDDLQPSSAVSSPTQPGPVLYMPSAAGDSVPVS
| Oligonucleotide | bound/input enrichment [ratio] |
| --- | --- |
| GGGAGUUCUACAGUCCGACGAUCGUAGCUGGGACUACAGAAAUGCUGGUAGUGCUCCGGCCUUGCUGAUGACUUCUGAUGUCCCAGCAAAUGUUGGCAUUGUUGACUGCUGAGAAGAUACUUCUGAGGACCCACGUCUAAGGUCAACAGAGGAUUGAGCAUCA | 0.0618 |
| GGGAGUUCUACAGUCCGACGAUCCUAGCAGUCCAGCAGCUAGAAGGAGCCUUGAGACAAACACUCCACACACAGGGAAGGCGAUAACAUUGUACAUUGGUUUACAUUUUUCUCCUUGAAUGAUUUUUCUAGAGGUCAUAGUGCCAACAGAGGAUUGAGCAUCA | 0.313 |
| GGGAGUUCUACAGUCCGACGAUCUGUGCAUAUGAUGCUUGGAGAUGGUUUUGCAAAAGCAGAAAUCGCUGCAAGGUAAUCACAAUAGAUAAAAGUGGUAUUUUAAACCUUUGAAAUAAAUGGAUGUAACUGUACGUUGGUACACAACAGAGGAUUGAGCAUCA | 0.934 |
| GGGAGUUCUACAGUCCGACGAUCCAGCGCCGAGGCCGCGGGUGCCCGCCGGGCCUCCCCAGCCGCCGCCAUGGGCAUCAAAUUUUUAGAAGUUAUCAAACCAUUCUGUGCAGUUCUACCAGAAAUUCAGAAACCGGAAAGGAACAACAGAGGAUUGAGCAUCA | 1.13 |
| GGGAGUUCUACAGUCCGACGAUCUGUGCAUAUGAUGCUUGAGAUGGUUUUUGCAAAAGCAGAAAUCGCUGCAAGGUAAUCCUAAUAGAGAAAAGUGGUAUUUUAAACCUUUGAAAUAAAUGGAUGUAACUGUACCUUGGUACACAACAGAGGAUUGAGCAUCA | 0.774 |
| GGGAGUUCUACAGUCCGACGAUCCACAGAGCAGCACCUACCCCCUCCUCCUUUCCACACCUGCAAACUCUUUUACUUGGGCUGAAUAUUUAGUGUUAAUUCAUCUCAGCUUUGAGGGCUCCUGUGGCAAAAUACCCGGAUAAACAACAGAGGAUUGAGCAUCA | 0.935 |
| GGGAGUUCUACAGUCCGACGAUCAGAAUCUUGGGACUGUUUUACUUAAUUGGUCAUUGGUAGCUUAACAAACAUGGAGAUAAGAUUAGAAAUCUUGACAUCAACAGGUAUCAAGCAGAAAAAACCAUGGCCACGUGUCUCCUGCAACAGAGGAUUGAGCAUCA | 0.111 |
| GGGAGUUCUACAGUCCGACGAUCAAGGUGAUGACUAUGUUUGUCCAACGACAGGUAUUUUCGGAGAGCAAAGAUGAGAUUGCGUUAGUCCUGUUUGGUACAGAUGGCACUGAUAAUGCCCUUGCUGGCAAGGACCAGUAUCAGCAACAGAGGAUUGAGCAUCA | 0.144 |

Sample 3 — technique: RNA Bind-n-Seq; form: RNA; medium: in vitro; tested at: 365 nM; relative to: no-protein control; reading: higher = stronger binding
Target: RNA binding protein fox-1 homolog 2, RRM domain, GST-SBP tag (RBFOX2, Homo sapiens, UniProt O43251-10, residues 100-194)
Setting: natural RNA segment, single round, ends assumed
Target sequence (chain): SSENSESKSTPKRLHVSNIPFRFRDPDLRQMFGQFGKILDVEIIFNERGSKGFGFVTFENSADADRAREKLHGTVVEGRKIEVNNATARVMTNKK
| Oligonucleotide | RBNS enrichment (R) |
| --- | --- |
| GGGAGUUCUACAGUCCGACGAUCGGAACUCGGGCUUCUGCCCAUUGCCCUCUGAAGCUGCUUCCCAUCUGAUGUCACUGGGAGACAGCAGCUGUCUGUGGGGUAUUGGGGUGCAGGUAGAUUAGAGCUGUGAAUGGAAUUCUCGGGUGCCAA | 1.36 |
| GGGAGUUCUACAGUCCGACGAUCUCAAAUUAAAGUAGGGCACAUGCCAAGGAGGUUCUCACCUCCCUAAAGAAGGGACUUGAAUUUUAGGGACUUUAAUUCACCCUUUCCUUCAAUCCAGCUUUCCCCCUUCUUGGAAUUCUCGGGUGCCAA | 0.388 |
| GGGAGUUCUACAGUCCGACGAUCAGACUGUCUAGAAAUUUUGUGUAUUAUGAGGGGAAAAAAGGAAAAGCUUGAAUCUGUGUAGUCUCUGACCCUAAGUGAGAAUGACUUUGGUGUCAGGGUCCUGUGGAGUUUGGAAUUCUCGGGUGCCAA | 2.7 |
| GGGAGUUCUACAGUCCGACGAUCACAGCUCUUCUUGCUUAGUGCGGAACCCAGGGAGCUGCUCAGACUUCCACCAAAGCAAAUCUGGCUCCUUCUUUAGAGAGAAGCCUACGUGGCGACUGCUCUUAUUUAAGUGGAAUUCUCGGGUGCCAA | 0.297 |
| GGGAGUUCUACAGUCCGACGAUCAUGAUACAGAGUUAGCAGGUUUUUCUAAGGAAAUGCCAUUCAAAUGCCUCCUAACUUUUAUAGUUAUUUUGUUUUAUAUUUCUAAAUUCUUGUAUCAGAUCCAAAGCUCUUGGAAUUCUCGGGUGCCAA | 0.459 |
| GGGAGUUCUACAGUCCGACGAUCAAGCCUGUCAGAGUUUUCAACGGUGCUUAUAGCUGCCAGCUGGAUUCCAAACAGGUACCACAUUGUCUCUGAGCUAAUGUUUAUAUUUUUCCAUUCAGGCACCGAAAUAGUGGAAUUCUCGGGUGCCAA | 0.386 |
| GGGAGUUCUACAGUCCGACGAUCCACAGGUGCCUGUGCACUUUGACGGUUAAUGCCACCAUGUAGGGAUUAUCGCGAGUGGUUGACCUUACACUUACUCCUUAAAUAGCAGUGAGUAAUGCAUUUGAGCUGUCUGGAAUUCUCGGGUGCCAA | 0.43 |
| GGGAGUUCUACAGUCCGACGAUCCGUACUUUAAAUUUUUGUUAUGAAAUAAAAAAAAGAUGGGUUUUGUAAAAAUAAAAAAAAAAUAUUUUUAGCAGAACAGGACUUACAGGGUCAUUGUCCCCACAAUGUGCUGGAAUUCUCGGGUGCCAA | 0.548 |

Single results of other studies
Starting sequence: viral docking peptide; TSVRRALFTGGSD; partner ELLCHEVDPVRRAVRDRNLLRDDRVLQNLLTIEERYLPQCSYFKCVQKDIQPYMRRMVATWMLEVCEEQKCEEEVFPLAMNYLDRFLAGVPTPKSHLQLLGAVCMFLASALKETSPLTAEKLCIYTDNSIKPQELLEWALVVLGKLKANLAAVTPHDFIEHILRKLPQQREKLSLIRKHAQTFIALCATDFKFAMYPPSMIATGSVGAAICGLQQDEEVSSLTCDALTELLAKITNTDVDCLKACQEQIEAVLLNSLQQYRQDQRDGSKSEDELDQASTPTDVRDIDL
| Substitution | target | assay | system | setting | scale | endpoint | value |
| --- | --- | --- | --- | --- | --- | --- | --- |
| S2W | CCND2, cyclin fold, Cln2 fusion (human) | yeast growth competition, sequencing | yeast | weak parent motif | relative to: not given, higher = stronger binding | normalised enrichment score | -0.478 |

Excerpt of the above (sample 1):
| Modification | mean fluorescence intensity [a.u.] |
| --- | --- |
| 2'F-ANA at 3 5 6 9 11 13 | 86.6 |
| 2'F-ANA at 4 7 8 9 11 12 13 | 401 |
| 2'F-ANA at 1 5 7 8 11 12 13 15 | 75 |
| 2'F-ANA at 1 2 8 9 13 | 146 |
